Results from different studies.
A part holds a random share of what one study measured. Positions count from the first letter of the parent shown.

Set 1 — target: UBE2A UBC core domain (UniProt P49459); technique: yeast two-hybrid; medium: yeast; notes: mostly zero background; relative to: not given; reading: higher = stronger interaction
UniProt P49459, sequence (whole entry, looked up): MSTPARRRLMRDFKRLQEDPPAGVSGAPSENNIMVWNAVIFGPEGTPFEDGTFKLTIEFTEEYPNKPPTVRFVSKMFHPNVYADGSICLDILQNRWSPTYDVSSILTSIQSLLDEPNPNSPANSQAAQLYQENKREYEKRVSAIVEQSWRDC
B1: ZNRF3 RING domain (UniProt Q9ULT6); chain DTLSSSSTSDCAICLEKYIDGEELRVIPCTHRFHRKCVDPWLLQHHTCPHCRHNIIEQKGNP
B2: RNF135 RING domain (UniProt Q8IUD6); chain PVWLAEDDLGCIICQGLLDWPATLPCGHSFCRHCLEALWGARDARRWACPTCRQGAAQQPHLR
Sequence | lacZ reporter activity
ALDRLEKLLRCSRCTNILREPVCLGGCEHIFCSNCVSDCIGTGCPVCYTPAWIQDLKI (BARD1 RING domain (UniProt Q99728)) | 0
B1 (ZNRF3 RING domain) | 0
B2 (RNF135 RING domain) | 0
QLRRLQEERTCKVCLDRAVSIVFVPCGHLVCAECAPGLQLCPICRAPVRSRVRTF (BIRC7 RING domain (UniProt Q96CA5)) | 0

Set 2 — target: CCNB2, cyclin fold, Cln2 fusion (human); technique: yeast growth competition, sequencing; medium: yeast; notes: strong parent motif; relative to: not given; reading: higher = stronger binding
Starting sequence: viral docking peptide; TSVRRALFTGGSD; partner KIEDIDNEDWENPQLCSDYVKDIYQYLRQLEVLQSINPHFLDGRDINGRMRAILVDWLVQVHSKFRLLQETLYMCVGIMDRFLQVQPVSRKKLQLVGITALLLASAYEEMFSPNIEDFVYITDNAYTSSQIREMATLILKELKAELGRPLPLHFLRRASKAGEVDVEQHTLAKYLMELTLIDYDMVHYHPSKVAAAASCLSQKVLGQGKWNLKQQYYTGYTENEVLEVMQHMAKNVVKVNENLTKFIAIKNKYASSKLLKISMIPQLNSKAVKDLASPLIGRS
Variant | normalised enrichment score
V3C | 1.04
F8Q | 0.545
S2T | 0.838

Set 3 — technique: protein-binding microarray; form: double-stranded DNA, one strand shown; medium: in vitro; tested at: not given; reading: higher = stronger binding
Target: Max-binding protein MNT, bHLH-zipper, MAX partner unstated (MNT, Homo sapiens, UniProt Q99583, residues 220-300)
Notes: k-mer, scored over probes, only values ≥0.25
Residues (chain): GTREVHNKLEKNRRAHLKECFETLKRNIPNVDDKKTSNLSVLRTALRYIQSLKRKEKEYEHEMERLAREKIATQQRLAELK
Strand | E-score
CGACATGA | 0.257
GCGTGCCA | 0.396
GCGAAGCA | 0.264
CGACCACG | 0.374
CACGTTTA | 0.369
GACGCCAC | 0.338
CACGCTCA | 0.302
CGGGACAC | 0.283

Other studies, line by line — technique: two-hybrid; relative to: out of 4 tests; reading: higher = firmer interaction
T1: itself; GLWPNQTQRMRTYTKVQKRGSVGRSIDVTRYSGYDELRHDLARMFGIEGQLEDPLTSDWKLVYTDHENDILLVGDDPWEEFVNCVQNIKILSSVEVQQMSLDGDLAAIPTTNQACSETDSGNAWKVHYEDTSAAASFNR
T2: itself; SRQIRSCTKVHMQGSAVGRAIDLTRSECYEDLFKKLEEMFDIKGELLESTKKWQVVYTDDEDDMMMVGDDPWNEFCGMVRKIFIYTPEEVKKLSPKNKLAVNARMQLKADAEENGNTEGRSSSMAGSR
T3: itself; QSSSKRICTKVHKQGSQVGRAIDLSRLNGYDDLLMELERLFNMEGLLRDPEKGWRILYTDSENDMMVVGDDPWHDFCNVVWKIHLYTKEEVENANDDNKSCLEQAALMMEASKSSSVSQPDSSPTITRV
T4: itself; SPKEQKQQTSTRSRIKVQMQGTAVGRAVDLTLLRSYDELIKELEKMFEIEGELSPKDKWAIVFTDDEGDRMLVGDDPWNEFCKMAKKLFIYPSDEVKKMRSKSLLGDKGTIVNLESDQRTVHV
B3: ARF19 948-1086 (Arabidopsis thaliana, UniProt Q8RYC8); chain GLWPNQTQRMRTYTKVQKRGSVGRSIDVTRYSGYDELRHDLARMFGIEGQLEDPLTSDWKLVYTDHENDILLVGDDPWEEFVNCVQNIKILSSVEVQQMSLDGDLAAIPTTNQACSETDSGNAWKVHYEDTSAAASFNR
B4: ARF1 538-665 (Arabidopsis thaliana, UniProt Q8L7G0); chain SRQIRSCTKVHMQGSAVGRAIDLTRSECYEDLFKKLEEMFDIKGELLESTKKWQVVYTDDEDDMMMVGDDPWNEFCGMVRKIFIYTPEEVKKLSPKNKLAVNARMQLKADAEENGNTEGRSSSMAGSR
B5: ARF4 660-788 (Arabidopsis thaliana, UniProt Q9ZTX9); chain QSSSKRICTKVHKQGSQVGRAIDLSRLNGYDDLLMELERLFNMEGLLRDPEKGWRILYTDSENDMMVVGDDPWHDFCNVVWKIHLYTKEEVENANDDNKSCLEQAALMMEASKSSSVSQPDSSPTITRV
B6: ARF11 500-622 (Arabidopsis thaliana, UniProt Q9ZPY6); chain SPKEQKQQTSTRSRIKVQMQGTAVGRAVDLTLLRSYDELIKELEKMFEIEGELSPKDKWAIVFTDDEGDRMLVGDDPWNEFCKMAKKLFIYPSDEVKKMRSKSLLGDKGTIVNLESDQRTVHV
Sequence | partner | positive tests
B3 (ARF19 948-1086) | T1, itself | 0
B4 (ARF1 538-665) | T2, itself | 0
B5 (ARF4 660-788) | T3, itself | 0
B6 (ARF11 500-622) | T4, itself | 0

A few entries again (other studies, line by line):
Sequence | partner | positive tests
B6 (ARF11 500-622) | T4, itself | 0
B3 (ARF19 948-1086) | T1, itself | 0
